Results gathered from unrelated publications.
Several values in a cell are separate wells, animals, samples, runs or records. ± marks the error that the study gave.

Cc1[nH]c2ccccc2c1CCNC(=O)c1ccccc1F  IC50 (Listeria; Listeria comet tail formation; SK-OV-3; infected cells): 7 µM
C=CC(=O)Nc1cccc(Cn2ncc3cnc(Nc4cnn(CCOC)c4)nc32)c1  percent of control (PHKG2 human; binding, KINOMEscan; 100 nM; lower = stronger binding): 100%
Cc1ncsc1-c1ccc(C(C)NC(=O)C2CC(O)CN2C(=O)C(NC(=O)CCCCCCCCCCN2CCCC(Nc3ncc(Cl)c(Nc4ccccc4S(=O)(=O)C(C)C)n3)C2)C(C)(C)C)cc1 (stereo not drawn)  log2 fold change (22Rv1; RNA-seq, item: TTC30B mRNA; concentration not given; relative to: DMSO): -2.06
c1ccc2c(Cc3c(-c4c[nH]c5ccccc45)[nH]c4ccccc34)c[nH]c2c1  IC50 (Bacteroides fragilis; microbial growth, absorbance): 3.1 µM
CNCc1ccc2c(c1)N(C(=O)OCc1c(F)c(F)c(F)c(F)c1F)[C@H](CNC(=N)N)[C@H]2NC(=O)C(=O)Nc1ccc(Cl)c(F)c1  IC50 (Human immunodeficiency virus 1; viral infection, Env pseudovirus; TZM-bl, 620345.c01 CRF01_AE): 21.4 µM
CNS(=O)(=O)Nc1nccc(Cc2c(C)c3ccc(Oc4ncccc4F)cc3oc2=O)c1F  IC50 (NCI-H358; cell viability; 7 days): 0.00907 µM
CC(=O)[O-].O.O.[O-]c1ccc(Br)cc1C=NCCN1CCOCC1.[Zn+2]  ferric reducing power (FRAP; 40 µM): 10.8%
COC1C=COC2(C)Oc3c(C)c(O)c4c(c3C2=O)C2=NC3(CCN(CC(C)C)CC3)NC2=C(NC(=O)C(C)=CC=CC(C)C(O)C(C)C(O)C(C)C(OC(=O)Nc2cnccn2)C1C)C4=O (stereo not drawn)  IC50 (Mycobacteroides abscessus; bacterial growth; subsp. abscessus ATCC 19977): 0.02 µM
COC1CN([C@H]2CC[C@H]([C@@]3(C)Oc4c(Cl)cc(C(=O)NCc5c(SC)cc(C)[nH]c5=O)c(C)c4O3)CC2)C1  log2 fold change (RNA-seq, item: BPGM mouse homolog; mouse, HT-1376 xenograft, whole blood; dose not given; relative to: vehicle): 1.24
CCN(CC)CC#CCNc1ccnc2cc(Cl)ccc12  IC50 (Plasmodium falciparum; parasite growth, SYBR Green I; 3D7): 0.0479 µM and 0.0421 µM
NC(=O)CN1C(=O)C(O)(CC(=O)c2cccc(N)c2)c2ccccc21 (stereo not drawn)  IC50 (Leishmania donovani; MTT; AG83 wild type promastigotes; 48 h): 47 ± 0.1 µM
CNCc1ccc2c(c1)C[C@H](CNC(=N)N)[C@H]2NC(=O)C(=O)Nc1ccc(Cl)c(F)c1  IC50 (Human immunodeficiency virus 1; viral infection, Env pseudovirus; TZM-bl, 620345.c01 CRF01_AE): > 100 µM
O=C1Nc2ccccc2C1(c1c[nH]c2ccccc12)c1c[nH]c2ccccc12  IC50 (Bacteroides fragilis; microbial growth, absorbance): 3.6 µM
Oc1cccc2c1[nH]c1c(C3=CC4(O)CCC=CCCCCN5CCC3C3(CC6C=CCCCCN6C43)C5)nccc12 (single isomer, unassigned; (+))  IC50 (Mycobacterium intracellulare; microbial growth, resazurin; ATCC23068): 0.13 µg/mL
COC1C=COC2(C)Oc3c(C)c(O)c4c(c3C2=O)C2=NC3(CCN(CC(C)C)CC3)NC2=C(NC(=O)C(C)=CC=CC(C)C(O)C(C)C(O)C(C)C(OC(=O)Nc2cccnn2)C1C)C4=O (stereo not drawn)  IC50 (Mycobacteroides abscessus; intracellular growth, Hill fit; THP-1 derived macrophages, ATCC 19977): 0.037 µM

A few entries again:
CC(=O)[O-].O.O.[O-]c1ccc(Br)cc1C=NCCN1CCOCC1.[Zn+2]  ferric reducing power (FRAP; 40 µM): 10.8%
O=C1Nc2ccccc2C1(c1c[nH]c2ccccc12)c1c[nH]c2ccccc12  IC50 (Bacteroides fragilis; microbial growth, absorbance): 3.6 µM
